Assay results pooled from the literature.
Lines come from different studies, so protocols differ.

C[C@@H](O)[C@H]1C(=O)N2C(C(=O)O)=C(SCCN=CN)C[C@H]12
MIC (Klebsiella pneumoniae; K3; at emergence of KPC-144, together with: ceftazidime-avibactam, avibactam fixed): 32 µg/mL

C[C@H](NC(=O)[C@H](CCCNC(=N)N)NC(=O)[C@H](Cc1c[nH]c2ccccc12)NC(=O)[C@H](CCCNC(=N)N)NC(=O)[C@H](Cc1c[nH]c2ccccc12)NC(=O)[C@H](Cc1c[nH]c2ccccc12)NC(=O)[C@H](Cc1c[nH]c2ccccc12)NC(=O)[C@H](CCCNC(=N)N)NC(=O)[C@H](Cc1c[nH]c2ccccc12)NC(=O)[C@H](CCCNC(=N)N)NC(=O)CN)C(N)=O
MIC (Candida albicans; broth microdilution; 56214, RPMI 1640-MOPS; 48 h, 30 °C): 8 µM

CC[C@H](C)C[C@H](C)CCCCCCCCC(=O)N[C@H]1C[C@@H](O)[C@@H](NCCN)NC(=O)[C@@H]2[C@@H](O)CCN2C(=O)[C@H]([C@H](O)CCN)NC(=O)[C@H]([C@H](O)[C@@H](O)c2ccc(O)cc2)NC(=O)[C@@H]2C[C@@H](O)CN2C(=O)[C@H]([C@@H](C)O)NC1=O
MIC (Pichia norvegensis; broth dilution; ATCC 96139; 48 h, 37 °C): 0.5 µg/mL

CN[C@H](CC(C)C)C(=O)N[C@H]1C(=O)N[C@@H](CC(N)=O)C(=O)N[C@H]2C(=O)N[C@H]3C(=O)N[C@H](C(=O)N[C@H](C(=O)O)c4cc(O)cc(O)c4-c4cc3ccc4O)[C@H](O)c3ccc(c(Cl)c3)Oc3cc2cc(c3O[C@@H]2O[C@H](CO)[C@@H](O)[C@H](O)[C@H]2O[C@H]2C[C@](C)(N)[C@H](O)[C@H](C)O2)Oc2ccc(cc2Cl)[C@H]1O
MIC (Enterococcus; VRE 700221; 16 h): > 100 µM

CC(C)(C)OCC1NC(=O)C(C(=O)NC(C(=O)NC2C(=O)N3C2SC(C)(C)C3C(=O)O)c2ccccc2)=C1O (centres unmarked)
MIC (Escherichia coli; broth microdilution; isolate IU 356 A, KPC-3, VIM-1, TEM; no clavulanic acid): > 200 µg/mL

CC[C@H](C)[C@H](NC(=O)[C@H](Cc1c[nH]c2ccccc12)NC(=O)[C@@H](N)CCCCN)C(=O)N[C@H]1CSSC[C@@H](C(=O)N[C@@H](CCCNC(=N)N)C(=O)N[C@@H](Cc2c[nH]c3ccccc23)C(=O)N[C@@H](CCCNC(=N)N)C(=O)O)NC(=O)[C@H](Cc2ccc(O)cc2)NC(=O)[C@H]([C@@H](C)O)NC(=O)[C@H]([C@@H](C)CC)NC(=O)[C@H](Cc2c[nH]c3ccccc23)NC(=O)[C@H](CCCNC(=N)N)NC(=O)CNC(=O)[C@H](CCCNC(=N)N)NC(=O)[C@H](Cc2ccc(O)cc2)NC(=O)[C@H](Cc2c[nH]c3ccccc23)NC(=O)[C@H](CC(C)C)NC(=O)[C@H](CCCNC(=N)N)NC(=O)[C@H](CCCNC(=N)N)NC1=O
MIC (Corynebacterium glutamicum; ATCC 13032; 37 °C): 0.78 µM

CC[C@H](C)[C@H](NC(=O)[C@H](Cc1c[nH]c2ccccc12)NC(=O)[C@@H](NC(=O)[C@@H](NC(=O)[C@@H](NC(=O)[C@H](CCCNC(=N)N)NC(=O)[C@@H](N)CCCNC(=N)N)[C@@H](C)CC)[C@@H](C)O)[C@@H](C)CC)C(=O)N[C@H](C(=O)N[C@H](C(=O)N[C@@H](CCCNC(=N)N)C(=O)N[C@@H](CCCNC(=N)N)C(N)=O)[C@@H](C)CC)[C@@H](C)O
MIC (Lactiplantibacillus plantarum; 7469, probiotic strain; 24 h, 37 °C, tested up to 128 µM): 128 µM

CC(C)[C@H](NC(=O)[C@H](CCCNC(=N)N)NC(=O)[C@H](Cc1c[nH]c2ccccc12)NC(=O)[C@H](CCCNC(=N)N)NC(=O)[C@H](Cc1c[nH]c2ccccc12)NC(=O)[C@H](Cc1c[nH]c2ccccc12)NC(=O)[C@H](Cc1c[nH]c2ccccc12)NC(=O)[C@H](CCCNC(=N)N)NC(=O)[C@H](Cc1c[nH]c2ccccc12)NC(=O)[C@@H](N)CCCNC(=N)N)C(N)=O
MIC (Candida albicans; broth microdilution; SP3903, RPMI 1640-MOPS; 48 h, 30 °C): 8 µM

CC1(C)SC2C(NC(=O)C(NC(=O)C3=C(O)C4CCCN4C3=O)c3ccccc3)C(=O)N2C1C(=O)O (centres unmarked)
MIC (Escherichia coli; broth microdilution; isolate IU, CTX-M-14, TEM-1; together with: clavulanic acid 6 µg/mL): > 200 µg/mL

N=C(N)NCCC[C@H](NC(=O)CN)C(=O)N[C@@H](Cc1c[nH]c2ccccc12)C(=O)N[C@@H](CCCNC(=N)N)C(=O)N[C@@H](Cc1c[nH]c2ccccc12)C(=O)N[C@@H](Cc1c[nH]c2ccccc12)C(=O)N[C@@H](Cc1c[nH]c2ccccc12)C(=O)N[C@@H](CCCNC(=N)N)C(=O)N[C@@H](Cc1c[nH]c2ccccc12)C(=O)N[C@@H](CCCNC(=N)N)C(=O)N[C@@H](Cc1c[nH]c2ccccc12)C(N)=O
MIC (Candida albicans; broth microdilution; 17546, RPMI 1640-MOPS; 48 h, 30 °C): 8 µM

CC[C@H](C)[C@H](NC(=O)[C@H](CC(C)C)NC(=O)[C@H](CC(C)C)NC(=O)[C@H](Cc1c[nH]cn1)NC(=O)[C@H](CCCCN)NC(=O)[C@H](Cc1c[nH]cn1)NC(=O)[C@H](CCCNC(=N)N)NC(=O)[C@@H]1CCCN1C(=O)[C@H](Cc1ccc(O)cc1)NC(=O)[C@H](CC(C)C)NC(=O)[C@H](CCC(N)=O)NC(=O)[C@@H](N)CO)C(=O)N[C@@H](CCCCN)C(=O)N[C@@H](CCCNC(=N)N)C(=O)N[C@@H](CO)C(=O)N[C@@H](CC(C)C)C(=O)N[C@@H](CCCNC(=N)N)C(=O)N[C@@H](CS)C(=O)N[C@@H](CCCNC(=N)N)C(=O)N[C@@H](CCCCN)C(=O)N[C@@H](CS)C(=O)O
MIC (Staphylococcus haemolyticus): 50 µg/mL

CN1CC(O)=C(C(=O)NC(C(=O)NC2C(=O)N3C2SC(C)(C)C3C(=O)O)c2ccccc2)C1=O (centres unmarked)
MIC (Escherichia coli; broth microdilution; isolate IU, CTX-M-14, TEM-1; no clavulanic acid): > 200 µg/mL

O=[N+]([O-])c1ccc(C2=[N+]([O-])c3ccccc3N3CCN=C23)cc1
MIC (Bacteroides fragilis): 0.06 to 0.125 µg/mL

CC(C)C[C@H](NC(=O)[C@H](CCCNC(=N)N)NC(=O)[C@H](Cc1c[nH]c2ccccc12)NC(=O)[C@H](CCCNC(=N)N)NC(=O)[C@H](Cc1c[nH]c2ccccc12)NC(=O)[C@H](Cc1c[nH]c2ccccc12)NC(=O)[C@H](Cc1c[nH]c2ccccc12)NC(=O)[C@H](CCCNC(=N)N)NC(=O)[C@H](Cc1c[nH]c2ccccc12)NC(=O)[C@H](CCCNC(=N)N)NC(=O)CN)C(N)=O
MIC (Candida albicans; broth microdilution; SP3902, RPMI 1640-MOPS; 48 h, 30 °C): 32 µM

CC(C)C1NC(=O)C(C(=O)NC(C(=O)NC2C(=O)N3C2SC(C)(C)C3C(=O)O)c2ccccc2)=C1O (centres unmarked)
MIC (Escherichia coli; broth microdilution; isolate IU, CTX-M-14, TEM-1; together with: clavulanic acid 6 µg/mL): 200 µg/mL

CC(C)[C@H](NC(=O)[C@H](CCCNC(=N)N)NC(=O)[C@H](Cc1c[nH]c2ccccc12)NC(=O)[C@H](CCCNC(=N)N)NC(=O)[C@H](Cc1c[nH]c2ccccc12)NC(=O)[C@H](Cc1c[nH]c2ccccc12)NC(=O)[C@H](Cc1c[nH]c2ccccc12)NC(=O)[C@H](CCCNC(=N)N)NC(=O)[C@H](Cc1c[nH]c2ccccc12)NC(=O)[C@H](CCCNC(=N)N)NC(=O)CN)C(N)=O
MIC (Candida albicans; broth microdilution; alveolar fluid isolate, RPMI 1640-MOPS; 48 h, 30 °C): 8 µM

CC[C@H](C)[C@H](NC(=O)[C@H](CC(N)=O)NC(=O)[C@H](CCCCN)NC(=O)[C@H](CC(=O)O)NC(=O)[C@H](Cc1ccc(O)cc1)NC(=O)[C@H](Cc1ccc(O)cc1)NC(=O)[C@H](Cc1ccc(O)cc1)NC(=O)[C@H](CCCNC(=N)N)NC(=O)[C@H](CC(C)C)NC(=O)CNC(=O)[C@H](CCCNC(=N)N)NC(=O)[C@@H](N)CO)C(=O)N[C@H](C(=O)N[C@@H](Cc1c[nH]cn1)C(=O)N[C@@H](CCCCN)C(=O)N[C@H](C(=O)N[C@@H](C)C(=O)NCC(=O)N[C@@H](CCCCN)C(=O)N[C@@H](CCCNC(=N)N)C(=O)N[C@@H](Cc1ccc(O)cc1)C(=O)N[C@H](C(=O)N[C@@H](Cc1ccc(O)cc1)C(=O)N[C@@H](CCCNC(=N)N)C(=O)N[C@@H](Cc1ccccc1)C(=O)N[C@H](C(=O)O)C(C)C)C(C)C)[C@@H](C)O)[C@@H](C)CC
MIC (Staphylococcus haemolyticus): 200 µg/mL

CC1(C)SC2C(NC(=O)C(NC(=O)C3=C(O)CNC3=O)c3ccccc3)C(=O)N2C1C(=O)O (centres unmarked)
MIC (Escherichia coli; broth microdilution; Keio mutant JW0146-2; 18 h, ferric hydroxamate uptake gene): 50 µg/mL

N=C(N)c1cccc(OCc2ccc(COc3cccc(C(=N)N)c3)cc2)c1
MIC (Escherichia coli; mcr-1; 20 h, compound alone): > 200 µg/mL

Cc1ncc([N+](=O)[O-])n1CCO
MIC (Bacteroides fragilis): 0.25 to 1 µg/mL

CC1(C)SC2C(NC(=O)C(NC(=O)C3=C(O)C(Cc4ccc([N+](=O)[O-])cc4)NC3=O)c3ccccc3)C(=O)N2C1C(=O)O (centres unmarked)
MIC (Escherichia coli; broth microdilution; isolate IU 356 A, KPC-3, VIM-1, TEM; no clavulanic acid): > 200 µg/mL

N=C(N)NCCC[C@H](NC(=O)CN)C(=O)N[C@@H](Cc1c[nH]c2ccccc12)C(=O)N[C@@H](CCCNC(=N)N)C(=O)N[C@@H](Cc1c[nH]c2ccccc12)C(=O)N[C@@H](Cc1c[nH]c2ccccc12)C(=O)N[C@@H](Cc1c[nH]c2ccccc12)C(=O)N[C@@H](CCCNC(=N)N)C(=O)N[C@@H](Cc1c[nH]c2ccccc12)C(=O)N[C@@H](CCCNC(=N)N)C(=O)N[C@@H](Cc1ccccc1)C(N)=O
MIC (Candida albicans; broth microdilution; SP3931, RPMI 1640-MOPS; 48 h, 30 °C): 8 µM

CN[C@H](CC(C)C)C(=O)N[C@H]1C(=O)N[C@@H](CC(N)=O)C(=O)N[C@H]2C(=O)NC3C(=O)N[C@H](C(=O)N[C@H](C(=O)NCCC[N+](C)(C)C)c4cc(O)cc(O)c4-c4cc3ccc4O)[C@H](O)c3ccc(c(Cl)c3)Oc3cc2cc(c3OC2OC(CO)C(O)[C@H](O)[C@@H]2O[C@H]2CC(C)(NCc3ccc(-c4ccc(Cl)cc4)cc3)[C@H](O)[C@H](C)O2)Oc2ccc(cc2Cl)[C@H]1O (some centres unmarked)
MIC (Enterococcus faecium; VanA VRE ATCC BAA-2317; no LTA, together with: Mg2+ 100 µg/mL): 0.3 µg/mL

For quick reference, copied from above:
CC[C@H](C)[C@H](NC(=O)[C@H](Cc1c[nH]c2ccccc12)NC(=O)[C@@H](NC(=O)[C@@H](NC(=O)[C@@H](NC(=O)[C@H](CCCNC(=N)N)NC(=O)[C@@H](N)CCCNC(=N)N)[C@@H](C)CC)[C@@H](C)O)[C@@H](C)CC)C(=O)N[C@H](C(=O)N[C@H](C(=O)N[C@@H](CCCNC(=N)N)C(=O)N[C@@H](CCCNC(=N)N)C(N)=O)[C@@H](C)CC)[C@@H](C)O
MIC (Lactiplantibacillus plantarum; 7469, probiotic strain; 24 h, 37 °C, tested up to 128 µM): 128 µM

CC(C)[C@H](NC(=O)[C@H](CCCNC(=N)N)NC(=O)[C@H](Cc1c[nH]c2ccccc12)NC(=O)[C@H](CCCNC(=N)N)NC(=O)[C@H](Cc1c[nH]c2ccccc12)NC(=O)[C@H](Cc1c[nH]c2ccccc12)NC(=O)[C@H](Cc1c[nH]c2ccccc12)NC(=O)[C@H](CCCNC(=N)N)NC(=O)[C@H](Cc1c[nH]c2ccccc12)NC(=O)[C@@H](N)CCCNC(=N)N)C(N)=O
MIC (Candida albicans; broth microdilution; SP3903, RPMI 1640-MOPS; 48 h, 30 °C): 8 µM

CC1(C)SC2C(NC(=O)C(NC(=O)C3=C(O)C4CCCN4C3=O)c3ccccc3)C(=O)N2C1C(=O)O (centres unmarked)
MIC (Escherichia coli; broth microdilution; isolate IU, CTX-M-14, TEM-1; together with: clavulanic acid 6 µg/mL): > 200 µg/mL
